Measured values pooled from the literature.
Every numbered part comes from another study and shows a few of its results, in no order. Positions count from the first letter of the parent shown.

Study 1
Target: Histone acetyltransferase KAT6A, winged helix 2, GST fusion (KAT6A, Homo sapiens, UniProt Q92794, residues 85-181)
Method: protein binding microarray
Form: double-stranded DNA, one strand shown
Matrix: in vitro
Concentration: not given
Setting: 8-mer, flanks averaged, mean of 2 arrays, mostly near background
Relative to: not given
Reading: higher = stronger binding
Endpoint: E-score
Residues (chain): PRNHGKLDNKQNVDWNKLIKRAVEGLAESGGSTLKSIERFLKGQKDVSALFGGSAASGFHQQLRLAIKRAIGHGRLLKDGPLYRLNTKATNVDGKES
ATCCATAA: 0.12
TCCCGACA: 0.102
CGAGAAGC: -0.0112
ATATGGAA: -0.0429
ACGTGAGA: -0.16
CGCCTCAC: 0.218
AGTTGTTG: 0.0526
TACGTCGA: -0.129
ACTTCACA: -0.118
CACCGTAA: -0.00103
GCTTTTCA: 0.00634
ACGGTGCG: 0.13
ACCAGCAA: 0.0728
AAGCAGCC: 0.0664
AGCAAGCA: -0.085
CTACTCCA: -0.0889
CGAGCGGC: 0.236
GCAGACGA: 0.0708
GTTAGATA: -0.127
GGCTCGTA: -0.0335
CCGGTGCC: 0.0591
GAATCCGC: 0.122
CGCCTAGC: 0.0296
AAACGTGT: -0.227

Study 2
Target: Centromere-binding protein 1, full length, His-tagged (CBF1, Saccharomyces cerevisiae, UniProt P17106, residues 1-351)
UniProt P17106, sequence (whole entry, looked up): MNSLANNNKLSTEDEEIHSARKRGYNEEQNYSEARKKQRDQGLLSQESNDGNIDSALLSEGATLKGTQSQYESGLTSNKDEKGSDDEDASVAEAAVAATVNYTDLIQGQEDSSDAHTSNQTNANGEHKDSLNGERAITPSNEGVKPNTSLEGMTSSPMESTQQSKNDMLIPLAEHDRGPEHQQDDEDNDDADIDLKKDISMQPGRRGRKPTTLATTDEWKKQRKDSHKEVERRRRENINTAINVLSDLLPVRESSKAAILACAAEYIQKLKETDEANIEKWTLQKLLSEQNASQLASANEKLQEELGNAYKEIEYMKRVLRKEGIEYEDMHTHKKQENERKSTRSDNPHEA
Method: competition protein-binding microarray
Form: double-stranded DNA, one strand shown
Matrix: in vitro
Concentration: 2 µM
Setting: whole 60-bp probe, lowest competitor level
Added: Pho4 competitor, 0.05 µM
Reading: higher = stronger binding
Endpoint: fluorescence intensity
Constant ends, left off below: … GTCTTGATTCGCTTGACGCTGCTG
CTTCCAACAAACCATCACGCTGTCGTATCTCAATTG: 130 a.u.
CTTTCCCGATCTTCACACGTGTTTTTAGCACATTTG: 1050 a.u.
ATGCTGGGGATGAAACACGTTGGACGTTTTGGGGCG: 86.8 a.u.
CGGGGTTAAGTTTGATACGTGGGTGGCTTGCAGCAG: 63.3 a.u.
CGTCCTAGTGATTGTCACTATACTTCCATGAGGAAG: 80.7 a.u.
AAATTACTAAGTTGCGCGGTGGGTGACGCCGTATGA: 61.2 a.u.
CATCCCACCCAATCGCACGGGTCTTCTGTGCGAATG: 68.2 a.u.
TGCTGAAACAACTGGCACGCAAGGTTTTTTAGCAGC: 81.2 a.u.
CTTCTGTAAATTTGATCGGTGGGTGGACGCGCCCCG: 76 a.u.
CGGGGTTAAGTTTGAAAAGTGGGTGGCTTGCAGCAG: 58.7 a.u.

Study 3
Target: CCND1, cyclin fold, Cln2 fusion (human)
Method: yeast growth competition, sequencing
Matrix: yeast
Setting: weak parent motif
Relative to: not given
Reading: higher = stronger binding
Endpoint: normalised enrichment score
Starting sequence: MICAL3 docking peptide (human); LQLRRQLSFSEDS
LQLRNQLSFSEDS [R5N]: 0.296
LQLFRQLSFSEDS [R4F]: 0.221
LQLRRQLSFQEDS [S10Q]: 0.0165
LQDRRQLSFSEDS [L3D]: 0.0697
LQLRRQLSFSEMS [D12M]: 0.649
LQLRRILSFSEDS [Q6I]: 0.242
LQRRRQLSFSEDS [L3R]: 0.239
LQGRRQLSFSEDS [L3G]: 0.332
LQLRRQLSFSEES [D12E]: 0.519
LQLYRQLSFSEDS [R4Y]: 0.546
LQLRRQLSFSTDS [E11T]: 0.203
LQLRRQLEFSEDS [S8E]: -0.303
LQLRRQLSRSEDS [F9R]: 0.125
LQYRRQLSFSEDS [L3Y]: -0.071
LQLRRQLSSSEDS [F9S]: -0.545
LQLRRQLSFHEDS [S10H]: 0.0756
LQLRRQLSFFEDS [S10F]: 0.0458
LQLRRQLSFSGDS [E11G]: 0.413

Study 4
Target: ABI1, truncated, D143A, DHFR fusion (Arabidopsis thaliana)
Method: DHFR PCA, deep sequencing
Matrix: yeast
Setting: methotrexate growth selection, single substitutions
Added: (+)-ABA 0.39 µM
Relative to: wild-type fitted maximum
Reading: higher = stronger binding
Endpoint: relative binding score
Starting sequence: PYL1, truncated, DHFR fusion (Arabidopsis thaliana); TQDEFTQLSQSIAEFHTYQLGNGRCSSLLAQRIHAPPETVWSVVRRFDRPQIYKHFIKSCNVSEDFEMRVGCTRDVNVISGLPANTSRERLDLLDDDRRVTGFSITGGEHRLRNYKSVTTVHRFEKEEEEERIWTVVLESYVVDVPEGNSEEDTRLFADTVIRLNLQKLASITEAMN
E128K: 33.7%
E109R: 6.81%
R32V: 58.7%
F66G: 32.1%
R98V: -1.58%
V161H: 42%
P50G: -7.53%
Q51Y: -9.79%
L94D: -16.3%
T73N: 3.59%
N22C: 23%
V142E: 22.8%
E139G: -7.08%
I12L: 2.02%
V76R: -7.81%

Study 5
Target: Interferon regulatory factor 3, full length, phosphomimetic (IRF3, Homo sapiens, UniProt Q14653, residues 1-427, S386D/S396D/S398D/S402D/T404D/S405D)
Method: protein-binding microarray
Form: double-stranded DNA, one strand shown
Matrix: in vitro
Concentration: 2540 nM top
Setting: 60-bp whole probe
Added: salmon DNA 0.4 mg/ml
Relative to: random background probes
Reading: higher = stronger binding
Endpoint: fitted relative affinity
Constant ends, left off below: GCCTAGCAC … GTCTTGATTCGCTTGACGCTGCTG
Target sequence (chain): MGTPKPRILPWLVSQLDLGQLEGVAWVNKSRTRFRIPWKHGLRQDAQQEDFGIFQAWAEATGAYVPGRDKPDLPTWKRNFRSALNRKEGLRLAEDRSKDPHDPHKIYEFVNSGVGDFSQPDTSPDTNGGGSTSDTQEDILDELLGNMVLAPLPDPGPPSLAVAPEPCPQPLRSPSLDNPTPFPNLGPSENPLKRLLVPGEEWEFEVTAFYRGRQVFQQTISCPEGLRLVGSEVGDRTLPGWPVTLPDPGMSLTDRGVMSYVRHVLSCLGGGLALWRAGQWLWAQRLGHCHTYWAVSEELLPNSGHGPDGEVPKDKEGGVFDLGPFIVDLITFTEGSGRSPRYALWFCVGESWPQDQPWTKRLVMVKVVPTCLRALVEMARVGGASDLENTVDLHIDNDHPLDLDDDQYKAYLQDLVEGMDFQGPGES
TTTTCATTTTCTTTAACTCAGTGCTAG: 5 z-score
ATTTATTTACTCTCTACATGGGTGCTA: 1.06 z-score
GAGGGTTTCGGTCTCGGGACGTGCTAG: 6.49 z-score
TTAGGACTCCTACTGCTTTAGTGCTAG: -0.141 z-score
GACGGTAGCGGGACTGGGGACGTGCTA: -0.722 z-score
TTAGGCTTCGGTTTCGGTTAGTGCTAG: 4.9 z-score
GACGATATCGCGTTTCGAGACGTGCTA: 0.781 z-score
TGTTTTTGCTTTCTTTTTGCGTGCTAG: 3.27 z-score
GACGGTTTCCTACTGCTCACGTGCTAG: 5.09 z-score
TTAGGATTCCTTATCCTTTAGTGCTAG: 3.99 z-score
GAAGGTTTCGGGTATCGGGACGTGCTA: 4.17 z-score
GAAGGTTTCCTTCTCCTGACGTGCTAG: 10.4 z-score
GACGATCTCACTCTCGAGACGTGCTAG: 1.01 z-score
TCATTTCTCCTATTTAAACTGTGCTAG: 3.48 z-score
GACGGTATCCTTACCCTGACGTGCTAG: 3.74 z-score
CTAGGTATCCTTTTCCTTTAGTGCTAG: 8.33 z-score
TTAGAATTGAGTCTCGATTAGTGCTAG: -0.237 z-score
TCACTTTACACACATCATACTGTGCTA: 1.34 z-score
AAGCAAGGTGGAGAAGAGAAGTGCTAG: -1.09 z-score
